Results from different studies.
Protocols differ between the studies behind these lines. ± gives the spread as reported.
Sequence of UniProt Q13557 (whole entry, looked up): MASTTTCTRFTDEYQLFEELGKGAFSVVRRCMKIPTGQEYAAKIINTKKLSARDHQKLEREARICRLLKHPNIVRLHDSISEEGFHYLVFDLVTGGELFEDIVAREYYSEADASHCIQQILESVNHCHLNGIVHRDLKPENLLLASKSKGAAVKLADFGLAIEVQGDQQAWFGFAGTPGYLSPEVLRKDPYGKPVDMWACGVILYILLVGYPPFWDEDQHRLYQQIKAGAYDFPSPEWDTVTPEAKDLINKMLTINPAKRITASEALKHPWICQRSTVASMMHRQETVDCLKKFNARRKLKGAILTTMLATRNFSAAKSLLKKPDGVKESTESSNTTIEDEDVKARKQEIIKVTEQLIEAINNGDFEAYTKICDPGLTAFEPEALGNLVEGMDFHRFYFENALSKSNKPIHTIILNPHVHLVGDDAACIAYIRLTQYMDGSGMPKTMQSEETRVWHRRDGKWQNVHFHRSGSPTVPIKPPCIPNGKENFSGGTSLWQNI

Compound	target or system	test	test system	conditions	how to read	endpoint	result
CC[C@H](C)[C@H](NC(=O)[C@H](CCCNC(=N)N)NC(=O)[C@H](CCCCN)NC(=O)[C@H](Cc1ccc(O)cc1)NC(=O)[C@H](CC(=O)O)NC(=O)[C@H](C)NC(=O)CNC(=O)CCOCCOCCOCCNC(=O)CN1CCN(CC(=O)O)CCN(CC(=O)O)CCN(CC(=O)O)CC1)C(=O)N[C@H](C(=O)N[C@H](C(=O)N[C@@H](CCCCN)C(=O)N[C@H](C(=O)N[C@@H](CC(N)=O)C(N)=O)C(C)C)C(C)C)[C@@H](C)O [copper-64 labelled]		ex vivo gamma counting	C57BL/6J male mice, B16-F10 tumour, lung	intravenous, 1.85 MBq, 40 min		tissue uptake	2.21 ± 0.038 %ID/g
CC(C)C[C@@H](NC(=O)[C@@H](CCCNC(=N)N)NC(=O)[C@@H](Cc1c[nH]cn1)NC(=O)[C@@H](Cc1c[nH]c2ccccc12)NC(=O)[C@@H](Cc1c[nH]cn1)NC(=O)[C@@H](Cc1ccccc1)NC(=O)[C@H](NC(=O)[C@@H](Cc1ccc(O)cc1)NC(=O)CNC(=O)CNC(=O)CCOCCOCCOCCNC(=O)CN1CCN(CC(=O)O)CCN(CC(=O)O)CC1)[C@H](C)O)C(=O)N[C@H](CC(N)=O)C(=O)N1CCC[C@@H]1C(=O)O [gallium-68 labelled]		gamma counting	C57BL/6 mice, male, blood	intravenous, 1.85 MBq, 120 min		tissue uptake	0.69 ± 0.2 %ID/g
CCCC[C@H]1C(=O)N(C)[C@@H](CCCC)C(=O)N[C@@H](CCCNC(=O)CN2CCN(CC(=O)O)CCN(CC(=O)O)CCN(CC(=O)O)CC2)C(=O)N[C@H](C(=O)NCC(N)=O)CSCC(=O)N[C@@H](Cc2ccc(O)cc2)C(=O)N(C)[C@@H](C)C(=O)N[C@@H](CC(N)=O)C(=O)N2CCC[C@H]2C(=O)N[C@@H](Cc2c[nH]cn2)C(=O)N[C@@H](CC(C)C)C(=O)N(C)CC(=O)N[C@@H](Cc2c[nH]c3ccccc23)C(=O)N[C@@H](CO)C(=O)N[C@@H](Cc2c[nH]c3ccccc23)C(=O)N1C [gallium-68 labelled]			NOD/SCID mice, CHO-hPD-L1 xenograft, brain	60 min, PBS pretreatment		tissue uptake	0.32 ± 0.06 %ID/g
CN1Cc2cc(Cl)ccc2-n2c(nnc2C2CCN(c3cccc([18F])n3)CC2)C1			C57BL/6 mouse male, bone	intravenous, dose not given, 30 min, added: blocking agent 10 mg/kg		tissue uptake	5.38 ± 2.41 %ID/g
O=C1NC2(CC2)COc2ncc(F)cc2[C@H]2COCCN2c2ccn3ncc1c3n2			Sprague-Dawley rat, male, serum	oral, 5 mg/kg/day, end of treatment, 4-week subacute toxicity		serum LDH activity	654 ± 274 U/L
C[C@H](O)[C@@H](NC(=O)[C@H]1CCCN1C(=O)[C@@H](CCCCN)NC(=O)[C@@H](CO)NC(=O)[C@@H](Cc1ccc(O)cc1)NC(=O)[C@@H](CC(N)=O)NC(=O)CCOCCOCCOCCNC(=O)CN1CCN(CC(=O)O)CCN(CC(=O)O)CCN(CC(=O)O)CC1)C(=O)N[C@H](CC(=O)O)C(=O)N[C@H](CCCNC(=N)N)C(=O)N[C@H](CCC(N)=O)C(=O)N[C@H](Cc1ccc(O)cc1)C(=O)N[C@H](Cc1c[nH]cn1)C(=O)N[C@H](Cc1ccccc1)C(N)=O [copper-64 labelled]			C57BL/6J mice, heart	intravenous, 1.85 MBq, 0.6667 h, radiolabelled		tissue uptake	0.56 ± 0.14 %ID/g
CSCC[C@H](NC(=O)CNC(=O)[C@H](CCCCN)NC(=O)[C@H](CC(C)C)NC(=O)[C@@H]1CCCN1C(=O)[C@H](CO)NC(=O)[C@H](Cc1c[nH]cn1)NC(=O)[C@H](Cc1c[nH]c2ccccc12)NC(=O)[C@H](CCCNC(=N)N)NC(=O)[C@H](CC(C)C)NC(=O)[C@H](CCCNC(=N)N)NC(=O)[C@H](Cc1c[nH]c2ccccc12)NC(=O)[C@H](CS)NC(=O)CCCCCNC(=O)CN1CCN(CC(=O)O)CCN(CC(=O)O)CCN(CC(=O)O)CC1)C(=O)O [copper-64 labelled]		ex vivo biodistribution	male C57BL/6J mice, muscle	intravenous, 1.85 MBq, 2 h, B16-F10 tumour-bearing		tissue uptake	0.46 %ID/g
CC(C)(C)C(=O)OCOP(=O)(OCOC(=O)C(C)(C)C)C1CCCN(O)C1=O (stereo not drawn)	SN12C					log GI50	-6.48 log M
CC[C@H](C)[C@H](NC(=O)[C@H](CCCNC(=N)N)NC(=O)[C@H](CCCCN)NC(=O)[C@H](Cc1ccc(O)cc1)NC(=O)[C@H](CC(=O)O)NC(=O)[C@H](C)NC(=O)CNC(=O)CCOCCOCCOCCNC(=O)CN1CCN(CC(=O)O)CCN(CC(=O)O)CCN(CC(=O)O)CC1)C(=O)N[C@H](C(=O)N[C@@H](CC(C)C)C(=O)N[C@@H](CCCCN)C(=O)N[C@H](C(=O)N[C@@H](CC(N)=O)C(N)=O)C(C)C)[C@@H](C)O [copper-64 labelled]		ex vivo gamma counting	C57BL/6J male mice, B16-F10 tumour, brain	intravenous, 1.85 MBq, 100 min		tissue uptake	0.058 ± 0.009 %ID/g
CC[C@H](C)[C@H](NC(=O)[C@H](CCCCN)NC(=O)CNC(=O)[C@H](CC(C)C)NC(=O)[C@H](Cc1ccccc1)NC(=O)[C@H](CCCCN)NC(=O)[C@H](CO)NC(=O)[C@H](Cc1ccccc1)NC(=O)[C@H](Cc1c[nH]c2ccccc12)NC(=O)[C@H](CCC(N)=O)NC(=O)[C@@H](NC(=O)[C@H](Cc1ccccc1)NC(=O)CCCCCNC(=O)CN1CCN(CC(=O)O)CCN(CC(=O)O)CCN(CC(=O)O)CC1)C(C)C)C(=O)N[C@@H](CCC(=O)O)C(=O)N1CCC[C@H]1C(=O)N[C@@H](CC(=O)O)C(=O)N[C@H](C(=O)N[C@@H](CO)C(=O)N[C@@H](CCC(N)=O)C(=O)N[C@H](C(=O)N[C@@H](CCC(N)=O)C(=O)N[C@@H](CC(=O)O)C(=O)N1CCC[C@H]1C(=O)N[C@@H](CC(N)=O)C(=O)N[C@@H](CC(=O)O)C(=O)N[C@@H](CCC(N)=O)C(=O)N[C@@H](Cc1ccc(O)cc1)C(=O)N[C@@H](CCC(=O)O)C(=O)N1CCC[C@H]1C(=O)N[C@@H](Cc1ccccc1)C(=O)O)C(C)C)C(C)C [copper-64 labelled]			C57BL/6 mice, liver	added: LPS 3 mg/kg intratracheal		tissue uptake	15.3 ± 1 %ID/g
CN(C)[C@H]1C[C@@]23CC[C@@]4(O2)C(=CC[C@]2(C)[C@@H](c5ccc6ccncc6c5)CC[C@H]24)C=C3[C@@H](O)[C@@H]1O	CAMK2D (Homo sapiens, UniProt Q13557)	ATP probe labelling, inhibitor, KiNativ profiling		0.1 µM		inhibition	-7.4%
COc1ccccc1-c1n[nH]c2nc(NC3CCN(C(=O)Cc4ccc(F)cc4F)CC3)ncc12		bead binding, competition bead pull-down, item: LINJ.31.0450	Leishmania donovani extract	10 µM	relative to: vehicle	relative abundance	0.92

For quick reference, copied from above:
Compound	target or system	test	test system	conditions	how to read	endpoint	result
CC[C@H](C)[C@H](NC(=O)[C@H](CCCNC(=N)N)NC(=O)[C@H](CCCCN)NC(=O)[C@H](Cc1ccc(O)cc1)NC(=O)[C@H](CC(=O)O)NC(=O)[C@H](C)NC(=O)CNC(=O)CCOCCOCCOCCNC(=O)CN1CCN(CC(=O)O)CCN(CC(=O)O)CCN(CC(=O)O)CC1)C(=O)N[C@H](C(=O)N[C@@H](CC(C)C)C(=O)N[C@@H](CCCCN)C(=O)N[C@H](C(=O)N[C@@H](CC(N)=O)C(N)=O)C(C)C)[C@@H](C)O [copper-64 labelled]		ex vivo gamma counting	C57BL/6J male mice, B16-F10 tumour, brain	intravenous, 1.85 MBq, 100 min		tissue uptake	0.058 ± 0.009 %ID/g
CCCC[C@H]1C(=O)N(C)[C@@H](CCCC)C(=O)N[C@@H](CCCNC(=O)CN2CCN(CC(=O)O)CCN(CC(=O)O)CCN(CC(=O)O)CC2)C(=O)N[C@H](C(=O)NCC(N)=O)CSCC(=O)N[C@@H](Cc2ccc(O)cc2)C(=O)N(C)[C@@H](C)C(=O)N[C@@H](CC(N)=O)C(=O)N2CCC[C@H]2C(=O)N[C@@H](Cc2c[nH]cn2)C(=O)N[C@@H](CC(C)C)C(=O)N(C)CC(=O)N[C@@H](Cc2c[nH]c3ccccc23)C(=O)N[C@@H](CO)C(=O)N[C@@H](Cc2c[nH]c3ccccc23)C(=O)N1C [gallium-68 labelled]			NOD/SCID mice, CHO-hPD-L1 xenograft, brain	60 min, PBS pretreatment		tissue uptake	0.32 ± 0.06 %ID/g
